# Measurements gathered from unrelated publications.
# A part holds a random share of what one study measured. Substitutions count along the parent as printed.

# Set 1 — target: CCNB3, cyclin fold, Cln2 fusion (human); method: yeast growth competition, sequencing; sample: yeast; notes: weak parent motif; reference: not given; direction: higher = stronger binding
# Starting sequence: ORC1 docking peptide (human); PRARKRLELGNLG; partner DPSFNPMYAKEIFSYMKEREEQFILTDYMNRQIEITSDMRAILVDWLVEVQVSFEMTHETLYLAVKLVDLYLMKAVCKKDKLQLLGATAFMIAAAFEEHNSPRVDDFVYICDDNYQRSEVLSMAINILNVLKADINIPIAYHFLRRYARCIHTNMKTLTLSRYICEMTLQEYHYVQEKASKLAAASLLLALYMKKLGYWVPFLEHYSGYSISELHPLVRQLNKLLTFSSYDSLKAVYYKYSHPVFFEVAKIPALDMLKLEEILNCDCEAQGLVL
Variant,normalised enrichment score
PRARKRHELGNLG [L7H],-0.324
PRARKRLETGNLG [L9T],-0.345
PRARRRLEFGNLG [K5R L9F],2.96
PRKRKRLELGNLG [A3K],-0.0309
PRMRKRLELGNLG [A3M],1.22
PRARDRLELGNLG [K5D],-0.0721
PRARKRLELGNLP [G13P],0.143
MRARKRLELGNLG [P1M],-0.203
PRARKRLELANLG [G10A],0.24
PRARPRLELGNLG [K5P],0.423
PRARKRLELGNLL [G13L],-0.359
PRARKRLELPNLG [G10P],-0.0131
PRVRKRLELGNLG [A3V],0.0357
PRARKRLELGSLG [N11S],0.258
PRARKRLELGNLC [G13C],0.238
PRACKRLELGNLG [R4C],0.00661
PRARKRPELGNLG [L7P],-0.451
PRARKRLELGALG [N11A],-0.0425
PRARKRLEMGNLG [L9M],0.204
PRARCRLELGNLG [K5C],0.00427
PRSRKRLELGNLG [A3S],0.406
PRARKRLQLGNLG [E8Q],0.345
PRARKRLELNNLG [G10N],0.295
YRARKRLELGNLG [P1Y],0.189
PRAQKRLELGNLG [R4Q],0.965

# Set 2 — method: competition protein-binding microarray; molecule type: double-stranded DNA, one strand shown; sample: in vitro; concentration: 2 µM; added: Cbf1 competitor, 0.05 µM; direction: higher = stronger binding
# Target: Phosphate system positive regulatory protein PHO4, full length, GST-tagged (PHO4, Saccharomyces cerevisiae, UniProt P07270, residues 1-312)
# Notes: whole 60-bp probe, lowest competitor level
# Residues (chain): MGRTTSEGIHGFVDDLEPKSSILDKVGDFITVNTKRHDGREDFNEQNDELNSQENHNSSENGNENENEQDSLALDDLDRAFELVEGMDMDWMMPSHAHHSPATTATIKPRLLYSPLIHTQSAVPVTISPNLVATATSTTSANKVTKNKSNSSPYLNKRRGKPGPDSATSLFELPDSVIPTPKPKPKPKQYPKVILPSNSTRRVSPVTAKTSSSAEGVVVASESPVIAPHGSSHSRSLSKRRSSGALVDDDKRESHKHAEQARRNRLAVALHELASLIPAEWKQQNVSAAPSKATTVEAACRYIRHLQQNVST
Sequence,fluorescence intensity [a.u.]
CCTCGGCTGTTCAGCAACGTGAGATGGTTGTTGTTAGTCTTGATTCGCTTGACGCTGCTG,9280
CGGGGTTAAGTTTGTCACAATACTTGCTTGCAGCAGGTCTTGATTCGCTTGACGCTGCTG,3600
TGCTGGCCAAACTGTGTCGTGGGACGCTGCTGTTGGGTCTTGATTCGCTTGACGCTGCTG,5700
AAATTACTAAGTTGACGCGTGGGTGACGCCGTATGAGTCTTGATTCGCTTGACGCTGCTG,9640
TGTTCTTATGGCTTGCATGTGCTCTGTATGTATATAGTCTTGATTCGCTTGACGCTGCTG,12600
CTAACGAAGGTTTTTCACGTGTGTTACAAGCCAAGTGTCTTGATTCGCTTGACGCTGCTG,13100
CATACCCAACCTTGTATTGTGGGTGAAGATATTTGTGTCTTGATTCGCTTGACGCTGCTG,4430
CACACCAAAAGAGTGTGCGTGTCCTGTCATTCGAGTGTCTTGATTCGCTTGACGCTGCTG,9490
CGGGGTTAAGTTTGAGTAGTGGGTGGCTTGCAGCAGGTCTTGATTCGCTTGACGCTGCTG,5050
CCCTTAGACTTGCTGGGCGTGCGATTCAAGGGACAGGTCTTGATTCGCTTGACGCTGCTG,8010
GAAATGAGGTTTTAGCACGTGATGGGGAAGCCACAGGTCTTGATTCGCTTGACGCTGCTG,17400
ATACTATCATTAACTTCCGTGACTCGATTGGTTTGCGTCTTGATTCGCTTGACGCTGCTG,3840
GTCGGTCAACATCCGCACGATGTTCCGTTTTTCTTTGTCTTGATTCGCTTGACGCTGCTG,11900
AGGCTCTTTTCCCGTCACGTAAGGTGTGGAAGTTAGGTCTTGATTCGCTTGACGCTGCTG,5450
ATAGTGGTGAGCTGGCACGTTTCTCCACACCTAGTAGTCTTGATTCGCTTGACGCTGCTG,13900
GACCTGGAGGAAGAACATGTGCCCTTGATTCAAGGCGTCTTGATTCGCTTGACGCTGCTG,10200
CGAAAATAGCTATCGCACGTATCGAATACCAAATCAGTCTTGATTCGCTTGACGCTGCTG,6320
CGTCCTAGTGATTGCCCGGTGGGTGCCATGAGGAAGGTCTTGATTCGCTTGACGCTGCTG,6770
ATGAGATTGAAATCCTCCGTGATGGGCTCCGGAACTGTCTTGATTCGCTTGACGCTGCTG,3440

# Set 3 — method: RNA Bind-n-Seq; molecule type: RNA; sample: in vitro; concentration: not given; notes: RNA with constant flanks, ends assumed; reference: input RNA pool; direction: higher = stronger binding
# Target: RING finger protein unkempt homolog, zinc fingers 1-6, GST-SBP tag (UNK, Homo sapiens, UniProt Q9C0B0, residues 30-357)
# Residues (chain): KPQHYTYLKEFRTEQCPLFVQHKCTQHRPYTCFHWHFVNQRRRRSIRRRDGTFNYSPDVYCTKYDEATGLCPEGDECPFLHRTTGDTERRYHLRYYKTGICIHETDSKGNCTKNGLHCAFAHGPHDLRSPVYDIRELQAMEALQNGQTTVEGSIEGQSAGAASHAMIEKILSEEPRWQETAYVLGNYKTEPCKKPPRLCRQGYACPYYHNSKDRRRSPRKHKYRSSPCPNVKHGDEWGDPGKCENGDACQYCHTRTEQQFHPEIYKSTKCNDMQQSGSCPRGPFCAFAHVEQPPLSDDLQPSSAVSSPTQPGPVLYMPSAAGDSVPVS
Sequence,bound/input enrichment [ratio]
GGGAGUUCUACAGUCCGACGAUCGGGUAUUUCACAAAGCCUCCACUUGUAGCUCACGCUUCAAGGUCAGCAGAAUCAAAGGUUACCGAAUUUGGAAAAUCCAAUUUCGUUCAGCCCAUGCAGGGUGAAGUAAUAAGGCCACCCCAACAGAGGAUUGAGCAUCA,0.0815
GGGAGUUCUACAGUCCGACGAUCCAGCAUGUCAUAGAAACCUUGAUUGGCAAAAAGCAGCAGAUCUCUCUUGCCACCCAGAUGGUCCGGAUGAUUCUGAAGAUUGAUGACAUCCGUAAGCCUGGAGAAUCUGAAGAAUAAACUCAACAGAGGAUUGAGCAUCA,0.141
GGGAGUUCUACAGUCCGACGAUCGAGCAGUCCUUGGAAACUGCGAAAGCAGUGAAGGAACGCUACAGUUAUGUCUGCCCAGAUUCCGUAAAAGAGUUUAACAAGUAUGACACCGAUGGGUCAAAGUGGAUCAAACAGUACACCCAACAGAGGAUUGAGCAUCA,0.111
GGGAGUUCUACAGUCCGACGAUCGAUGAAUUGAUGACCCUGGCUCAUAAACACAUUGUCAAGACUGUGGAUUUCACGCAGGACCGUAAUUAUUUGUUAACCGGGGGACAGGAUAAACUGUUACGCAUAUAUGACUUGAACAAACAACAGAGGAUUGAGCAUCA,0.217
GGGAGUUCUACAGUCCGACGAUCUUCUCCGUACUUUUCUCUGAAAGGAAUCUUGUCUUGUUAAACCCUAAAGAGAGUGUCCUUAACCGCAAUCAGCACUUGUAAGCUUAUAUACUGGUGCAUUUGGUUUUCUGUUGGGUGAAUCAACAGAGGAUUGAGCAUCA,0.332
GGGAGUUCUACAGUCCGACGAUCCAGUGGUAUUAAUGGAUGGCAUUAUGUUUGGAGGCAGCAGCAUAGAGGACUGUUGUUUACCGAGAAAAGAUUUGGGAAGGACUGUUUACAAUGUGGGUCAGCCUGAAGCCUGGGCACUUUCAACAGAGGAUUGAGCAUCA,0.705
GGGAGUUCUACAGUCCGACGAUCACUUGGGGCUCUGCAGGACCUUCUCUGUCCAGCGCCCCCUUUCUGUUGUGCGAUUAGUUGCCGCUGCCAUGCUCAGAAUUGCCUUUUGAGAGCUGAAGCAAGGUGCUUACUGUCACCUGACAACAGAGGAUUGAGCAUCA,0.137
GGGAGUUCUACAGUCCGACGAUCUUGUCCUAUGAUGCUAUUAUCAUAGACUAAUGACAUUUAUCUUCAAAACACCAAAUUGUCUUCCGAAAAAUUAAUGUGAUUACAGGUAGAGGCCUUCUAGGUGAGACACUUUUAAGGUACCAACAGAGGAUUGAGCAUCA,0.241

# Set 4 — method: DHFR PCA, deep sequencing; sample: yeast; added: (+)-ABA 200 µM; reference: wild-type fitted maximum; direction: higher = stronger binding
# Target: ABI1, truncated, D143A, DHFR fusion (Arabidopsis thaliana)
# Notes: methotrexate growth selection, single substitutions
# Starting sequence: PYL1, truncated, DHFR fusion (Arabidopsis thaliana); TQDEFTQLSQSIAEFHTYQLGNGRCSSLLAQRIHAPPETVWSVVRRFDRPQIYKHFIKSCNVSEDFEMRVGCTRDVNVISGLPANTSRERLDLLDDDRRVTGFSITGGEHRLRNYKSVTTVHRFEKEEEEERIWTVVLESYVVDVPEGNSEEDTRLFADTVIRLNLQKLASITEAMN; partner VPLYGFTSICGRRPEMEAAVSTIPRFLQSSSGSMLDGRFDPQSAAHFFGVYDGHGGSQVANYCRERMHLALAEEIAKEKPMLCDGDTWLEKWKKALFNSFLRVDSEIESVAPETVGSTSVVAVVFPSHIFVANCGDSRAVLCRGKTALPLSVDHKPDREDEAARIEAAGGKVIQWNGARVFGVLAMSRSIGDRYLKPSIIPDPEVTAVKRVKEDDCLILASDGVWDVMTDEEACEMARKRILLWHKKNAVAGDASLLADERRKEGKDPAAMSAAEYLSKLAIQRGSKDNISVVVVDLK
Variant,relative binding score [%]
Q31D,-0.0888
E89R,1.23
S117Y,12.4
W134D,95.8
N114K,77.8
E152F,89.3
G102Y,9.26
D65R,98.3
E89P,-5.37
T1N,97.2
P36I,76.2
I57Q,50.8
R132A,113
Q7P,87.6
E151W,85.4
S63Y,88.5
E38R,75.9
D97A,108
S63G,103
I162L,71
G23A,93.8

# For quick reference, copied from above (set 1):
Variant,normalised enrichment score
PRARKRLETGNLG [L9T],-0.345
PRARRRLEFGNLG [K5R L9F],2.96
PRKRKRLELGNLG [A3K],-0.0309
PRMRKRLELGNLG [A3M],1.22
PRARDRLELGNLG [K5D],-0.0721
PRARKRLELGNLP [G13P],0.143
MRARKRLELGNLG [P1M],-0.203
